Assay results pooled from the literature.
Parts stem from different laboratories: compare values within a part only. Substitutions count along the parent as printed.

Study 1
Target: Histone acetyltransferase KAT6A, winged helix 1, GST fusion (KAT6A, Homo sapiens, UniProt Q92794, residues 1-85)
Method: protein binding microarray
Molecule type: double-stranded DNA, one strand shown
Sample: in vitro
Tested at: not given
Setting: 8-mer, flanks averaged, mean of 2 arrays, mostly near background
Reference: not given
Reading: higher = stronger binding
Measurement: E-score
Construct (chain): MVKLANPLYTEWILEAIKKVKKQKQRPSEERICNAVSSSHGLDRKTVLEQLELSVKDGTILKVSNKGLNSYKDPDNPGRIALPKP
ATTACAAT: 0.0373
ATCCAGCA: -0.202
AACTCACA: -0.268
CTTAGCAC: 0.0137
CTCACCAA: -0.0762
AAACAATA: -0.0553
ATTAATGA: 0.00357
ATAAGGAT: -0.379
ACGAGGCA: -0.178
CGATATCA: -0.0957
CGGGTTCC: 0.342
TAAGGGTA: -0.0594
GATGAACC: -0.04
GCGATTCC: 0.238
TGTGAGAA: -0.238
CGTTCTGC: 0.0611
AATTCTGG: -0.139
CGTACAGA: -0.0239
ACCCATCA: -0.12
CTGGTAGA: -0.306
CCGGTCCG: 0.365
TCGTCGCA: 0.0247

Study 2
Target: RNA binding protein fox-1 homolog 2, RRM domain, GST-SBP tag (RBFOX2, Homo sapiens, UniProt O43251-10, residues 100-194)
Method: RNA Bind-n-Seq
Molecule type: RNA
Sample: in vitro
Tested at: 365 nM
Setting: natural RNA segment, single round, ends assumed
Reference: no-protein control
Reading: higher = stronger binding
Measurement: RBNS enrichment (R)
Constant ends, left off below: GGGAGUUCUACAGUCCGACGAUC … UGGAAUUCUCGGGUGCCAA
Target sequence (chain): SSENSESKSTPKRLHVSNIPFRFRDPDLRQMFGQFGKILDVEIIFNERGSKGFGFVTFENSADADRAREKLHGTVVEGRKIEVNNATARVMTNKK
CCACUGCCCCUUUCUGGUUUAAAAAAAUGGUGCUUGAUGAGGGAAGGUAGACUCUUCCCUAGGACUGACGAGUUACGGCUGCCAGAUGCCUGCAUGGGAAGAGGUGGACA: 0.479
GCACAGCAGCUUGUCAGAGUGAGAACUGUCCUGGGGCCAGAGACUAACAUGCCCAGGUGGUGUCGGCUCAGAGGAUCCUAGCACCAUCUUAAGCAGGUGGGAGGCAGGGA: 0.409
CCACCAUGGCACAGGUGCUAUGGCGGGAUGGUCAUCUCACUCCCUAGCUUCCUGUGGGUCAGGAGUGCAGAGCCACAGCCCACCCUGAACUGUCUGUGCCAGUGAGCGCC: 0.248
AUUCUCACAUGACAUUUCAAUUCAUCUCUACCAAUGAAGAGCGUCCUCCCUGUUGGGAGCAAUCUGUACGUCUGUUUUGUCAGCUUCAGGUUCUGGUACUUUGAAGUCAA: 0.293
GCCCACCACCCCUGGGUGCUCAGUUUCUACCAACAUGAGCCAGCAAGUCCUUGUGGUAGCCCUGGGGUAGCCUGUAGUAGACUCGGGUCCUGUCCACAGCCCUAGCUGCC: 0.619
UUUCCAGGCUGCAGCCGUAACGCACUUUCUCCCAGGCUGAGGGCGGGUGUUCUGGGGUGUCUGCCCUCUGUCGGCCCUGCUUCCUGCCAGGACGUGGCCUCUUCCGAUCC: 0.413
GGACCCUUGGUCUAAUUCGCACUUUCCUCACGAGAAUUAAAUUAAGCAAAAAACAAACAAACAUAGUGGGCCCUCGUCUAGAUCAUGAUGUGCCAGUUUCUGAGACAUCU: 0.402
GUGGGCUUCCUCUCUGCCCCAGAUCUCUCCUUCCUCUCUCUUCCUUCCACUCCCGCCCCUUCUCUUGCAGCCAAGUCAGACUCCAAGAGGCCCCACUGAGCUGCCCUCUC: 0.778
UCAUCACACUAUCCUGACUCCCACGGAAAGCAACAGGAGACCUCGCAUGGUGUCCUACAGCAGCAGUUUCUGUCUUUGUAAUUCCUUGUUGACCACAUACAGCAGGCAGC: 2.64
CACAGAUGGUCGUCACGUGGGACCUGGAAUUGGAGACACUGCAGCGAGCAGCUAGAAAGCCUCUUGUGUUCCUGGCACCUCCUGGCACUUAUCUUGGGAAUGCCUGCAUG: 3.91
UUCAUUUGUCAGAUCCAGUUUUCCUACAUACAUCUUUGUUCACAGUAUGCUAAGGGGAAAAAAAAAUUUAGGAUAGAAAACUUGAGCAUUGUAUAUGUUUCCUGGAUGUC: 0.824
AUAGGUGGAAUAUGACUGCUCAGAAAGUUAAACUUUAAUUUAUUGAAUUGUACAUAGCUGGAUGUAAAUAGGAGCGUGUCUGUCAGGUUUUAUUCUUGUUUUGCCUUUUG: 0.497

Study 3
Target: CEP164, C-terminal peptide (human)
Method: DHFR complementation, deep sequencing
Sample: yeast
Setting: single substitutions, model-inferred values
Reference: wild type
Reading: higher = weaker binding
Measurement: binding free energy change
Starting sequence: PDZK1, PDZ domain 2 (human); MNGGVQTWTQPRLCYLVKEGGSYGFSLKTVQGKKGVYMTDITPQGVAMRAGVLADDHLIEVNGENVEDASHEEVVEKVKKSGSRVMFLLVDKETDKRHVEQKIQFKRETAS; partner HNRVKVYRF
V52G: 2.04 kcal/mol
L16C: 0.753 kcal/mol
V90N: -0.0669 kcal/mol
G63T: 0.41 kcal/mol
E64L: 0.164 kcal/mol
D55E: 0.0272 kcal/mol
E19G: 0.334 kcal/mol
K92M: 0.0217 kcal/mol
V78S: 1.84 kcal/mol
Q101A: -0.121 kcal/mol
G3F: -0.042 kcal/mol
C14V: -0.395 kcal/mol
V85T: 0.981 kcal/mol

Study 4
Target: PABPC1L2, full length, GST fusion (mouse, UniProt A0ABA7IW68)
Method: RNAcompete
Molecule type: RNA
Sample: in vitro
Tested at: 20 nM
Setting: 7-mer, probes averaged, single round
Reference: mean of 7-mers
Reading: higher = stronger binding
Measurement: 7-mer Z-score
Residues (chain): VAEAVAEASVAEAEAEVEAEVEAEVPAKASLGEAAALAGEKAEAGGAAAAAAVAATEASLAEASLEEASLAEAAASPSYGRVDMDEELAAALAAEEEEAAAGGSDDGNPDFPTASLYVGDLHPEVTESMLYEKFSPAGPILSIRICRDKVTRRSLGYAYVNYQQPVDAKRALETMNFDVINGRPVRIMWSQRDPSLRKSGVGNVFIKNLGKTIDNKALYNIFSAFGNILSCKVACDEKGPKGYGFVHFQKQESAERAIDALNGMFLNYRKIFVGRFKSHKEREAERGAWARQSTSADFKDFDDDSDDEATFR
CCUAGGA: 0.00436
ACGUUAC: -0.195
CCGACGU: -0.19
GUCUAAA: 0.488
CUUGCCU: -0.249
GUGCGUC: -0.296
AUAAAAU: 4.86
UACUAUU: -0.266
UAUUAUU: -0.327
UAUCGUC: -0.304
UAGCCUC: -0.262
AUAUGAC: 0.138
AUUGUGG: 0.167
ACAUCUG: -0.117
GAACUAU: -0.141
AUAUACG: -0.0174

Study 5
Target: JDP2, bZIP domain (human)
Method: DHFR protein complementation
Sample: yeast
Setting: single substitutions, most at no-binding floor
Reference: wild-type JUN-FOS pair
Reading: higher = stronger binding
Measurement: binding fitness
Starting sequence: JUN, bZIP domain (human); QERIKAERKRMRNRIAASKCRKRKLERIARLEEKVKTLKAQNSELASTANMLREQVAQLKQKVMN; partner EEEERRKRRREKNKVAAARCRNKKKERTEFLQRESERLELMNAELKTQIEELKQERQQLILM
I28L: 0.309 natural log
R30S: 0.329 natural log
K34G: 0.304 natural log
L45H: 0.101 natural log
L31M: 0.291 natural log
A46V: 0.25 natural log
L31W: 0.307 natural log
T48Q: 0.289 natural log
S43E: 0.317 natural log
S43C: 0.246 natural log
N42C: 0.193 natural log
K36F: 0.2 natural log
K34W: 0.482 natural log
L38H: -0.081 natural log
E44D: 0.154 natural log
A46Y: 0.238 natural log

Study 6
Target: CCNA1, cyclin fold, Cln2 fusion (human)
Method: yeast growth competition, sequencing
Sample: yeast
Setting: weak parent motif
Reference: not given
Reading: higher = stronger binding
Measurement: normalised enrichment score
Starting sequence: E2F3 docking peptide (human); PPAKRRLELGESG
S12A: 0.552
L9A: 0.464
E8A: 0.33
P2A: 0.431
L9F: 1.52
K4A: 0.417
R5A L7A: 0.0367
G10A: 0.613
R5K: -0.362

Study 7
Target: ABI1, truncated, D143A, DHFR fusion (Arabidopsis thaliana)
Method: DHFR PCA, deep sequencing
Sample: yeast
Setting: methotrexate growth selection, single substitutions
Added: (+)-ABA 0.39 µM
Reference: wild-type fitted maximum
Reading: higher = stronger binding
Measurement: relative binding score
Starting sequence: PYL1, truncated, DHFR fusion (Arabidopsis thaliana); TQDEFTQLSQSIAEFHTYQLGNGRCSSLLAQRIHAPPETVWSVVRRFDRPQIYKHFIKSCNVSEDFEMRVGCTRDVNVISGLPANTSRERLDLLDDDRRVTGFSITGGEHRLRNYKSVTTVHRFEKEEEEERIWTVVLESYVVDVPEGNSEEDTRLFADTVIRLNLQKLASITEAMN
T120H: -2.19%
P83I: -1.11%
L91H: -16.8%
T39E: 17.7%
R24N: 12.5%
N77Y: 47.1%
V78P: -3.77%
E174S: -2.74%
N149E: 34%
S63K: 45.1%
N114I: -6.44%
F66I: 1.27%
V44T: -5.5%
K54P: -4.17%
N114Q: -12.5%
R49A: 40.7%

Study 8
Target: RING finger protein unkempt homolog, zinc fingers 1-6, GST-SBP tag (UNK, Homo sapiens, UniProt Q9C0B0, residues 30-357)
Method: RNA Bind-n-Seq
Molecule type: RNA
Sample: in vitro
Tested at: not given
Setting: RNA with constant flanks, human and mouse sites, ends assumed
Reference: input RNA pool
Reading: higher = stronger binding
Measurement: bound/input enrichment
Constant ends, left off below: GGGAGUUCUACAGUCCGACGAUC … CAACAGAGGAUUGAGCAUCA
Target sequence (chain): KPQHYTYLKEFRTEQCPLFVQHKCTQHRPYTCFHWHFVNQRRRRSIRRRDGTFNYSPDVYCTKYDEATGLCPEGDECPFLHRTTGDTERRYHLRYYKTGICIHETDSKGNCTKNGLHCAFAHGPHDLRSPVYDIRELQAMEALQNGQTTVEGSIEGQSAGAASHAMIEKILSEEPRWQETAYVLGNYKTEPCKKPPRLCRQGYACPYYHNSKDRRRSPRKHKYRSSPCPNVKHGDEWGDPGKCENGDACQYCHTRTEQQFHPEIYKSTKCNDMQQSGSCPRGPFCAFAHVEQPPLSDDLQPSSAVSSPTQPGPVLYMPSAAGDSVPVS
UACAGGCAAAGUUGAAUCUUCUGUCUUCCUGGCAAAAAAUGGCAUAAAAACUGAGUUGCUAGCUCAAAUUCCUGGGUUUCAUGGAAUUAUGAUUGAGGCACUACCCUGGUAGUGGCCGUU: 0.265 ratio
ACCUGGAAUAAUGAGAUCUUACCUAACUGGGAAACAAUGUGGUGCUCUAGAAAAGUUCGAGAUUUAUGGUGGCAGGGAAUCCCUCCAAGUGUGAGAGGCAAAGUCUGGAGCUUAGCCAUU: 0.317 ratio
CAAUCAAGCUACAGACAGUCGAGUCCAGGCGUGUGCAGCUGUGUGGAGGAUGCCCAAGGAAUUAGAAUCCGGUAGCCACGAGUCCCCUGACGACCCUGCAAGCACUGCUCAGACCCUGGA: 0.0936 ratio
AAUGGUACUUCAGCAGCACUUCGUGAAACUGGGGUUAUUGAAAAACUCUUGACCUCUUACGGAUUCAUUCAGUGUUCAGAACGGCAAGCUAGACUUUUCUUCCACUGUUCACAAUAUAAU: 0.22 ratio
CCCAUUAUUGAAUCUUCCACAAACAUCAAGUUUGGCUGUUUUCAAUGGUACUACCCUGAAUUAGCAGCCCAAUUCAAAGAUGCAGGCCUCAGUAUCUUCAAUAACAUUUGGAGUCAUGUU: 0.274 ratio
ACCCUAUUUGAAUUCUGAGCAUUAUUUAUAAGUAUAAAAUGAUGAUAUAUAAGUGAAUUUUGUGCUCUUGUUUGUAUUUUAUUAAGGAAAAUGAAAAUAAUCUGGCAUCAGUUUCAUUUU: 0.435 ratio
AUGAGGGCUCCUAAACACUUUCUUCCUGAGAUGUUAAGCAAAGUAAUCAUCCUGUCACUAGAUAGAAGCGAUGAAGAUAAAGAAAAAGCAAGUUCUUUGAUCAGUUUACUCAAACAGGAA: 0.22 ratio
CUUGCACGAAUUUUGUAUAUUUCAAAUAUUUCUGUAAAGGUUUCUUCUUUUCUGUUAGAGUGUGGUGUUAAGCCAGAGUCAGUGGUUUGUGUUCUCAUUAAAAUGUUUGUUUAAAUCCUA: 0.568 ratio
GGUUUGAUGCCUGGUCCUUCAAAUGAUUUCAAGUAUGGAUUGAUACCAGGUACUUCAAAUGAUUUCAAGUAUGGAUUGAUACCAGGUGCUUCAAAUGAUUUCAAGUAUGGAUUAUUGCCA: 0.159 ratio
GUAGAAUUUAUUUUGUCUUUUAUUGAUCACAUUGCUGGAGAUGAGGAUCAUACGGACGGAGUGGUAGCCUGUGCUGCUGGUCUGAUAGGGGACUUGUGUACAGCCUUCGGGAAGGAUGUA: 1.9 ratio
UAUAUUCACUGUCUGCCUGGAAAUAGCCUUGGUUUACCUUAUUUUUUUGUAUAUGUAAAACUAUUCAUAUUUGAUUUUAUUCCAAUAUUAUAUAUGAUGGAAAAGCCAGAAUUGUCUGGC: 1.83 ratio

Mixed results
PhoQ, residues 284 288 289 292 302 303 AEGLLW
fold induction (PhoP, residues 12 14 15 18 19 TPWLV (Escherichia coli, UniProt P23836); Sort-seq, measured: YFP reporter; E. coli; PhoQ-PhoP variant library, added: 10 µM Mg2+; reference: high Mg2+ state, higher = stronger signaling): 1.43

Excerpt of the above (study 1):
ATTACAAT: 0.0373
ATCCAGCA: -0.202
AACTCACA: -0.268
CTTAGCAC: 0.0137
CTCACCAA: -0.0762
AAACAATA: -0.0553
ATTAATGA: 0.00357
ATAAGGAT: -0.379
ACGAGGCA: -0.178
CGATATCA: -0.0957
